Experimental data from different studies.
Every numbered part comes from another study and shows a few of its results, in no order.
Sequence of UniProt Q13976 (whole entry, looked up): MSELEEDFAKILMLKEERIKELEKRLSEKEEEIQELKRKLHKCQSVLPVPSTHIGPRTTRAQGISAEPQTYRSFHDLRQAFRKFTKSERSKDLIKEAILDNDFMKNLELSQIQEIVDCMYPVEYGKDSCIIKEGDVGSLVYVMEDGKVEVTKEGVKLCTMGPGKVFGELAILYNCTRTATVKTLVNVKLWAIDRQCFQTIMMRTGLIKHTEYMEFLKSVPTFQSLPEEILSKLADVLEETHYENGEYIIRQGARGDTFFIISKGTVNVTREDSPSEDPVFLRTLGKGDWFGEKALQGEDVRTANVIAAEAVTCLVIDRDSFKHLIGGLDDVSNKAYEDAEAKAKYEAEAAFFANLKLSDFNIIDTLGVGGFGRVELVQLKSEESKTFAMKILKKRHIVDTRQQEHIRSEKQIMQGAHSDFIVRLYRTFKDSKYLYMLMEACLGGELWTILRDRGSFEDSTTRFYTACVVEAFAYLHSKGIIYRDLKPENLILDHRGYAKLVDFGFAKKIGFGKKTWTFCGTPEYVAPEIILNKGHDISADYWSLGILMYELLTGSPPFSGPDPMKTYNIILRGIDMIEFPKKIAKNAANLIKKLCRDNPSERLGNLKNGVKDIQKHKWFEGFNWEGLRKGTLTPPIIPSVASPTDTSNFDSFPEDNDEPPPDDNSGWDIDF
Sequence of UniProt P10721 (whole entry, unmodified, looked up): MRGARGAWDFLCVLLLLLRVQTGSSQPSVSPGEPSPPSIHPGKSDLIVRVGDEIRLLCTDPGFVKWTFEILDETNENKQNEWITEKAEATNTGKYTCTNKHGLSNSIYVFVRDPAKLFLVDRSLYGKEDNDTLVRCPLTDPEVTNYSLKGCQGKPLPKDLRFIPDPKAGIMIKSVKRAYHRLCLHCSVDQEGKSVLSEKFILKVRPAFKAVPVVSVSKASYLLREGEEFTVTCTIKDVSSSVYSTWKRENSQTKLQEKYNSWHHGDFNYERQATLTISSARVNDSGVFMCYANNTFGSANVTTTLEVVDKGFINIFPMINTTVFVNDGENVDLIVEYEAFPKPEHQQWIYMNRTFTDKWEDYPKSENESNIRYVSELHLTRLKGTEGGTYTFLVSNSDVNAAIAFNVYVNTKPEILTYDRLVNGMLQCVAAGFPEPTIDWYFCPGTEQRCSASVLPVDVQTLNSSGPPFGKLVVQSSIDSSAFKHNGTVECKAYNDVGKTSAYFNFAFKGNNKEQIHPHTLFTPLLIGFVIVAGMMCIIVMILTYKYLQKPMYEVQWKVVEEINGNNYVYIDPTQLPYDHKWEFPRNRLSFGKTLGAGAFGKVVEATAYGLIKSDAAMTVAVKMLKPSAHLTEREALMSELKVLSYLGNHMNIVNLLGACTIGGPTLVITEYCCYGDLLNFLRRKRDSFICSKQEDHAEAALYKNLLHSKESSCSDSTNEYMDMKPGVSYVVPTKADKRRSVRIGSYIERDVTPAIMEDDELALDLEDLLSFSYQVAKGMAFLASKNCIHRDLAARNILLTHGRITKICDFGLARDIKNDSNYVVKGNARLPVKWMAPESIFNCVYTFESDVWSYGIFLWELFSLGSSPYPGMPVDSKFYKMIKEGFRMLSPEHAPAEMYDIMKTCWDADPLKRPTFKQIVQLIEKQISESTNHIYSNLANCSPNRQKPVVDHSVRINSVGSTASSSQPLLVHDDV
Sequence of UniProt P78368 (whole entry, looked up): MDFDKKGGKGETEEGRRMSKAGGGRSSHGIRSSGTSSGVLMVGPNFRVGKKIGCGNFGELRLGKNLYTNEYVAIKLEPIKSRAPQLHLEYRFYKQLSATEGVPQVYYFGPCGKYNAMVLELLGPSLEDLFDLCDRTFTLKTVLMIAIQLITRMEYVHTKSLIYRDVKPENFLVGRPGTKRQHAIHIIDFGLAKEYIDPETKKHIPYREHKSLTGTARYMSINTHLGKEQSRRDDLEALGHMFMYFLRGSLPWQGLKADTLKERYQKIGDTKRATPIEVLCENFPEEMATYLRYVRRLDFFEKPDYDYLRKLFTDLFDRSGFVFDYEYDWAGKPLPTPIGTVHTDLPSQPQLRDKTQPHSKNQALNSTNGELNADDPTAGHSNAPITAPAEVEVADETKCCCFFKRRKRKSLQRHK
Sequence of UniProt Q15375 (whole entry, looked up): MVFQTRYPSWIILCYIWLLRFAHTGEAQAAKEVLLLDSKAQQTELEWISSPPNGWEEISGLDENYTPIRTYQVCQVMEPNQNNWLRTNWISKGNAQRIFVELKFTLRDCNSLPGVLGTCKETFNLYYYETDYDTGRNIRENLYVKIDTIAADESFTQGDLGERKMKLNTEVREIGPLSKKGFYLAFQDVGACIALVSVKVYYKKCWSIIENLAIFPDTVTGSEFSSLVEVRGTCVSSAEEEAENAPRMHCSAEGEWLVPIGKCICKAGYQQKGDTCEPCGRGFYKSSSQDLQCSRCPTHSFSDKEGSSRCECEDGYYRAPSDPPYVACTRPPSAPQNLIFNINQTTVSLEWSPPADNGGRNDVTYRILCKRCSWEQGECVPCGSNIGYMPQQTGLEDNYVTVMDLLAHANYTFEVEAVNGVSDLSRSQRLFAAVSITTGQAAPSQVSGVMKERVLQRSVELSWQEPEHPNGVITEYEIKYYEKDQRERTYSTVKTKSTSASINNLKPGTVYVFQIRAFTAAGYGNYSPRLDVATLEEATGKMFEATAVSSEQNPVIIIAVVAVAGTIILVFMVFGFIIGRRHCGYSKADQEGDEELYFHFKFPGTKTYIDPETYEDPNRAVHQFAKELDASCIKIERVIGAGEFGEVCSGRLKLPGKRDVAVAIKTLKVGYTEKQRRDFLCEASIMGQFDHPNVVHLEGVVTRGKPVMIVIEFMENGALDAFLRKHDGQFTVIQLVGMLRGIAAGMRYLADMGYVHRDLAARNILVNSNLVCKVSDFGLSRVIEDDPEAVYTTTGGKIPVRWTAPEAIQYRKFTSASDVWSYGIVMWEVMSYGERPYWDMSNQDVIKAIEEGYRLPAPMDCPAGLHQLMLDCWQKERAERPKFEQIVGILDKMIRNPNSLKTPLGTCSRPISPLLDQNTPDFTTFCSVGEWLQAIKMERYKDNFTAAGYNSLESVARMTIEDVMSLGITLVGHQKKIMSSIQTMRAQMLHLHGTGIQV
Sequence of UniProt Q9Y6M4 (whole entry, looked up): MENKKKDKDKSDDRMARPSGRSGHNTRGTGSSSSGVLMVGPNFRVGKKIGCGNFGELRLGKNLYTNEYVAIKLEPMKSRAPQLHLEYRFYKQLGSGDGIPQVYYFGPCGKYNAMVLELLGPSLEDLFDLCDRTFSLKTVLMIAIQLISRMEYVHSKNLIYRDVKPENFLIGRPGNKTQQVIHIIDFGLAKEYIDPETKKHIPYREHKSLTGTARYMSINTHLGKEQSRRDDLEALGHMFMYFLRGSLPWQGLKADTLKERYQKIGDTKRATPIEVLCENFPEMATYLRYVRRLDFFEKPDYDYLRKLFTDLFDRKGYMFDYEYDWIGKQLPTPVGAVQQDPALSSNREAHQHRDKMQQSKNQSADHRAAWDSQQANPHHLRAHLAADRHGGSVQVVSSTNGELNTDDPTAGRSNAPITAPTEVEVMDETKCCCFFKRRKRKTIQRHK
Sequence of UniProt Q12851 (whole entry, looked up): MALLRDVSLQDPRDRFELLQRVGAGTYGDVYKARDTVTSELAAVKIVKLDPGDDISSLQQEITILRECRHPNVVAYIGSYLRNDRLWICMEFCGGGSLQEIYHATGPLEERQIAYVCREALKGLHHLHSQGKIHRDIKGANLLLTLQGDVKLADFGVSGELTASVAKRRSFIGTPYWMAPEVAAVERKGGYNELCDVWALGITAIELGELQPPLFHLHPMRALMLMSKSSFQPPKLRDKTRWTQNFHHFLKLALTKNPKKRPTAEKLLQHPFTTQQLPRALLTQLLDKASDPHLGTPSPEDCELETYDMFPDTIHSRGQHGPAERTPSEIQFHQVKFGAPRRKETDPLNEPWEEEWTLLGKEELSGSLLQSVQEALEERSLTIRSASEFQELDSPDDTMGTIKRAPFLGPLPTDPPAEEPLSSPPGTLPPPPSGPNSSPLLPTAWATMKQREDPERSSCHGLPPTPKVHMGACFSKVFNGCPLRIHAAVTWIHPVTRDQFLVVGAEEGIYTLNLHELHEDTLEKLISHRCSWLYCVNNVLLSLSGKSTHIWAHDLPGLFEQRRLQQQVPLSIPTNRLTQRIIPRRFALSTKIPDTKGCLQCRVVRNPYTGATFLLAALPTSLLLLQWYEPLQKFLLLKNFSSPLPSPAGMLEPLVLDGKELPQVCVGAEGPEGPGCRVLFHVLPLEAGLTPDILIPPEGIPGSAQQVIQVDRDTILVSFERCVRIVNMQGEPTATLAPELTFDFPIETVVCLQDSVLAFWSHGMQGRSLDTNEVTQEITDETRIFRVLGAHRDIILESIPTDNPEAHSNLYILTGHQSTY

Block 1
Target: Bromodomain-containing protein 4, BD1 (BRD4, Homo sapiens, UniProt O60885)
Read-out: acetyl-histone H4 peptide binding
Method: AlphaScreen displacement
Concentration: 50 µM
For `Nc1nc(Nc2cccc(Cl)c2)c2nc[nH]c2n1`, the inhibition was 43%.
The inhibition of `CCc1c(O)[nH]c2nc3ccccc3n2c1=O` is reported as 11.1%.
`Cn1c(C(C#N)=Cc2ccncc2)nc2ccccc21` gave an inhibition of 2.6%.
`CC(C)(C)n1nc(-c2cccc3ccccc23)c2c(N)ncnc21` gave an inhibition of 10.8%.
With `O=C(Nc1cccc(Nc2nccc(Nc3cccc(C(F)(F)F)c3)n2)c1)C1CC1` the inhibition was 38.4%.
The inhibition of `O=C(CSc1ccc2nnc(-c3cccc(F)c3)n2n1)Nc1cccc(F)c1` is reported as 7.9%.
`Cc1sc2nc[nH]c(=O)c2c1-c1ccc(Cl)cc1` gave an inhibition of 14.9%.
The inhibition of `N#CC(=Cc1ccc(F)cc1)c1nc2ccccc2s1` is reported as 14.7%.
`COc1ccc(NC(=S)Nc2ccc3nc[nH]c(=O)c3c2)cc1` gave an inhibition of 12.4%.
The inhibition of `CC(=O)NNC(=O)c1c(O)c2ccccc2[nH]c1=O` is reported as 35.9%.
The inhibition of `CC(C)OC(=O)c1ccc(NC(=O)Nc2ccc(Cl)c(Cl)c2)cc1` is reported as 12%.
With `C[S+]([O-])c1ccc(CSc2nc(-c3ccc(F)cc3)c(-c3ccncc3)[nH]2)cc1` (stereo not drawn) the inhibition was 14.2%.
With `CC(C)OC(=O)CNC(=O)c1cc2c(=O)n3ccccc3nc2n1C` the inhibition was 6.15%.
With `O=c1[nH]cnc2scc(-c3ccc(F)cc3)c12` the inhibition was -1.85%.
`CCOC(=O)C(C)Sc1ccc2nnc(-c3ccc(OC)c(OC)c3)n2n1` (stereo not drawn) has an inhibition of 27.3%.
`OC1CCN(Cc2c(-c3ccco3)[nH]c3ncccc23)CC1` gave an inhibition of 4.3%.
`O=C(NCc1ccc(NC(=O)C2CC2)cc1)c1n[nH]c2ccccc12` gave an inhibition of 5.55%.

Block 2
Compound: Cc1cc(Nc2cc(N3CCN(C)CC3)nc(Sc3ccc(NC(=O)C4CC4)cc3)n2)[nH]n1
Read-out: enzyme activity
Action: inhibitor
Concentration: 0.5 µM
Relative to: control
The remaining activity was 102% (MAP4K2 (Homo sapiens, UniProt Q12851)).
It gave 98.9% for remaining activity (PRKCI (Homo sapiens, UniProt P41743)).
It gave 97.5% for remaining activity (PRKCD (Homo sapiens, UniProt Q05655)).
It gave 93.1% for remaining activity (Cyclin-dependent kinase 9, with cyclin T1 (CDK9, Homo sapiens, UniProt P50750)).
The remaining activity was 89.2% (KIT (Homo sapiens, UniProt P10721)).
STK38 (Homo sapiens, UniProt Q15208) — remaining activity: 97.8%.
It gave 77.1% for remaining activity (CHEK1 (Homo sapiens, UniProt O14757)).
It gave 88% for remaining activity (EPHA5 (Homo sapiens, UniProt P54756)).
For IRAK4 (Homo sapiens, UniProt Q9NWZ3): remaining activity read 78%.
For PRKG1 (Homo sapiens, UniProt Q13976): remaining activity read 90.8%.
For WNK2 (Homo sapiens, UniProt Q9Y3S1): remaining activity read 96%.

Block 3
Target: Calcium/calmodulin-dependent protein kinase type II subunit alpha (CAMK2A, Homo sapiens, UniProt Q9UQM7)
Sequence of UniProt Q9UQM7 (whole entry, looked up): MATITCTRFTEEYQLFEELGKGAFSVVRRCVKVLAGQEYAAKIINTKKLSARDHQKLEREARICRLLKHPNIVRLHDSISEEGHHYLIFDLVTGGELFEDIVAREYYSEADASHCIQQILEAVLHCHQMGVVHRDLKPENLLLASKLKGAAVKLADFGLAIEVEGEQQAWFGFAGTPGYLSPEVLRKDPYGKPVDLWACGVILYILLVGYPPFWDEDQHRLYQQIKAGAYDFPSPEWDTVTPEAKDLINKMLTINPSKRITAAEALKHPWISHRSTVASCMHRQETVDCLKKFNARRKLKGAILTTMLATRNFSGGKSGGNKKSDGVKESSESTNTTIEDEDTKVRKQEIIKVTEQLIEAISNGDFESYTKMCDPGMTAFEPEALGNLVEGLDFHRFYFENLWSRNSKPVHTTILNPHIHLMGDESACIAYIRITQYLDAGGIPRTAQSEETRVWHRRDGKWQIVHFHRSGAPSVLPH
Read-out: enzyme activity
Action: inhibitor
Concentration: 10 µM
The inhibition of `COc1cccc(C(=O)O)c1` is reported as 8%.
`COc1cc(C[C@H](CO)[C@@H](CO)Cc2ccc(O)c(OC)c2)ccc1O` gave an inhibition of -47%.
`CCCCC1=NC2(CCCC2)C(=O)N1Cc1ccc(-c2ccccc2-c2nnn[nH]2)cc1` has an inhibition of 1%.
With `CCCCCCCC(=O)OC` the inhibition was -84%.
`COc1ccc(C(=O)NCc2ccc(OCCN(C)C)cc2)cc1OC` gave an inhibition of -7%.
`CC(C)=CCC[C@](C)(O[C@@H]1O[C@H](CO[C@@H]2OC[C@H](O)[C@H](O)[C@H]2O)[C@@H](O)[C@H](O)[C@H]1O)[C@H]1CC[C@]2(C)[C@@H]1[C@H](O)C[C@@H]1[C@@]3(C)CC[C@H](O)C(C)(C)[C@@H]3[C@@H](O)C[C@]12C` gave an inhibition of 0%.
`C[C@@H]1O[C@@H](O[C@H]2[C@H](Oc3cc(O)c4c(=O)cc(-c5ccc(O)cc5)oc4c3)O[C@H](CO)[C@@H](O)[C@@H]2O)[C@H](O)[C@H](O)[C@H]1O` gave an inhibition of 7%.
With `COc1cc2c(cc1O)CC[C@@H]1[C@@H]2CC[C@]2(C)C(=O)CC[C@@H]12` the inhibition was 6%.
`CC1(C)CC[C@]2(C(=O)O[C@@H]3O[C@H](CO)[C@@H](O)[C@H](O)[C@H]3O)CC[C@]3(C)C(=CC[C@@H]4[C@@]5(C)CC[C@H](O)C(C)(C)[C@@H]5CC[C@]43C)[C@@H]2C1` gave an inhibition of -2%.
`CCOc1cc(CC(=O)N[C@@H](CC(C)C)c2ccccc2N2CCCCC2)ccc1C(=O)O` has an inhibition of -1%.

Block 4
Compound: CCCCN(CCCC)C(=O)CN1C[C@@H](c2cc(OC)c3c(c2)OCO3)[C@H](C(=O)O)[C@H]1CC(C)(C)CCC
Read-out: cell-free assay
Method: competition with immobilised ligand
Concentration: 1 µM
TSSK3 (Homo sapiens, UniProt Q96PN8) — remaining binding: 100%.
TTK (Homo sapiens, UniProt P33981) — remaining binding: 100%.
It gave 100% for remaining binding (ERBB3 (Homo sapiens, UniProt P21860)).
It gave 98% for remaining binding (MAP2K2 (Homo sapiens, UniProt P36507)).
For KIT (Homo sapiens, UniProt P10721, D816H): remaining binding read 78.5%.
It gave 100% for remaining binding (EPHA7 (Homo sapiens, UniProt Q15375)).
It gave 100% for remaining binding (CAMK4 (Homo sapiens, UniProt Q16566)).
For CSNK1G2 (Homo sapiens, UniProt P78368): remaining binding read 96.3%.
For CSNK1G3 (Homo sapiens, UniProt Q9Y6M4): remaining binding read 100%.
It gave 100% for remaining binding (PRKG1 (Homo sapiens, UniProt Q13976)).

Excerpt of the above (block 2):
STK38 (Homo sapiens, UniProt Q15208) — remaining activity: 97.8%.
It gave 77.1% for remaining activity (CHEK1 (Homo sapiens, UniProt O14757)).
It gave 88% for remaining activity (EPHA5 (Homo sapiens, UniProt P54756)).
For IRAK4 (Homo sapiens, UniProt Q9NWZ3): remaining activity read 78%.
For PRKG1 (Homo sapiens, UniProt Q13976): remaining activity read 90.8%.
